# Assay results of several laboratories.
# Lines come from different studies, so protocols differ. Numbers after ± are the reported error.
SMILES,cell line,assay,test system,setting,scale,quantity,result
O=c1c(Nc2ccc(Br)cc2)c(NC2CCN(Cc3ccccc3)CC2)c1=O,SH-SY5Y,MTT,,"6.25 µM, 24 h",,viability,101 ± 1.44%
O=c1c2cc3ccccc3cc2nc(SCc2ccc(Cl)cc2)n1Cc1ccccc1,BGM,morphology and trypan blue,,72 h,,maximum non-toxic concentration,50 µg/mL
O=c1c(NCc2ccc(Br)cc2)c(NC2CCN(Cc3ccccc3)CC2)c1=O,SH-SY5Y,MTT,,"6.25 µM, 24 h",,viability,91.95 ± 0.52%
C[C@@H](c1ccccc1)N(CC(N)=O)C(=O)CN(C(=O)CN(CCCCN)C(=O)CN(C(=O)CN(C(=O)CN(CCCCN)C(=O)CN(C(=O)CN(C(=O)CN(CCCCN)C(=O)CN(C(=O)CN(C(=O)CNCCCCN)[C@@H](C)c1ccccc1)[C@@H](C)c1ccccc1)[C@@H](C)c1ccccc1)[C@@H](C)c1ccccc1)[C@@H](C)c1ccccc1)[C@@H](C)c1ccccc1)[C@@H](C)c1ccccc1,"primary gingival epithelial cells, 3D",MTT,,"up to 256 µg/mL, 3 h",,cytotoxicity,not toxic
Cc1c(C)c(C)[c-](C)c1C.Fc1c[c-]c(-c2ccccn2)cc1.[Cl-].[Ir+3],A2780,"ICP-MS, item: iridium in nuclear fraction",,IC50,,iridium share in fraction,10.4%
O=c1c(NCCc2ccccc2)c(NC2CCN(Cc3ccccc3)CC2)c1=O,SH-SY5Y,MTT,,"12.5 µM, 24 h",,viability,118 ± 2.16%
COC(=O)C1=CO[C@@H](OC(C)=O)[C@@H]2C(Cn3cc(COCc4ccccc4)nn3)=CC[C@H]12,SK-N-SH,MTT,,"0.075 to 0.6 µM, 24 h, together with: H2O2",,viability,> 78%
CC(C)C[C@H](NC(=O)[C@H](CCCCN)NC(=O)[C@H](CC(C)C)NC(=O)[C@H](CC(C)C)NC(=O)[C@H](CCCCN)NC(=O)[C@H](CCCCN)NC(=O)[C@H](CC(C)C)NC(=O)[C@H](CC(C)C)NC(=O)[C@H](CCCCN)NC(=O)[C@H](CC(C)C)NC(=O)[C@H](CC(C)C)NC(=O)[C@H](CCCCN)NC(=O)[C@H](CCCCN)NC(=O)[C@H](CC(C)C)NC(=O)[C@@H](N)CSSC[C@H](N)C(=O)N[C@@H](CC(C)C)C(=O)N[C@@H](Cc1c[nH]cn1)C(=O)N[C@@H](CCC(=O)O)C(=O)N[C@@H](CC(C)C)C(=O)N[C@@H](CC(C)C)C(=O)N[C@@H](CCC(=O)O)C(=O)N[C@@H](Cc1c[nH]cn1)C(=O)N[C@@H](CC(C)C)C(=O)N[C@@H](Cc1c[nH]cn1)C(=O)N[C@@H](CCC(=O)O)C(=O)N[C@@H](CC(C)C)C(=O)N[C@@H](CC(C)C)C(=O)N[C@@H](CCC(=O)O)C(=O)N[C@@H](Cc1c[nH]cn1)C(N)=O)C(N)=O,mouse erythrocytes,hemolysis,,"1 h, 37 °C",,HC10,~85.5 µM
CC[C@H](C)[C@H](NC(=O)CNC(=O)[C@H](CCCNC(=N)N)NC(=O)[C@H](CCCCN)NC(=O)CNC(=O)[C@H](CC(N)=O)NC(=O)CNC(=O)CNC(=O)CNC(=O)[C@H](CC(C)C)NC(=O)[C@H](C)NC(=O)CNC(=O)[C@H](Cc1c[nH]c2ccccc12)NC(=O)[C@H](Cc1ccc(O)cc1)NC(=O)CNC(=O)[C@H](CCCNC(=N)N)NC(=O)[C@H](CCSC)NC(=O)CNC(=O)[C@H](CCCCN)NC(=O)[C@H](CC(N)=O)NC(=O)[C@H](Cc1ccccc1)NC(=O)[C@H](CCCCN)NC(=O)[C@@H](N)CC(N)=O)C(=O)N[C@@H](CCSC)C(=O)NCC(=O)N[C@@H](Cc1ccc(O)cc1)C(=O)N[C@@H](CC(=O)O)C(=O)O,3T3 fibroblasts,MTT,,"1 nM to 10 µM, 24 h",,cytotoxicity,not toxic
CC(C)C[C@H](NC(=O)[C@H](CCCCN)NC(=O)[C@H](CC(C)C)NC(=O)[C@H](CC(C)C)NC(=O)[C@H](CCCCN)NC(=O)[C@H](CCCCN)NC(=O)[C@H](CC(C)C)NC(=O)[C@H](CC(C)C)NC(=O)[C@H](CCCCN)NC(=O)[C@H](CC(C)C)NC(=O)[C@H](CC(C)C)NC(=O)[C@H](CCCCN)NC(=O)[C@H](CCCCN)NC(=O)[C@H](CC(C)C)NC(=O)[C@@H](N)CSSC[C@H](N)C(=O)N[C@@H](CC(C)C)C(=O)N[C@@H](CCC(=O)O)C(=O)N[C@@H](Cc1c[nH]cn1)C(=O)N[C@@H](CC(C)C)C(=O)N[C@@H](CC(C)C)C(=O)N[C@@H](CCC(=O)O)C(=O)N[C@@H](Cc1c[nH]cn1)C(=O)N[C@@H](CC(C)C)C(=O)N[C@@H](CCC(=O)O)C(=O)N[C@@H](Cc1c[nH]cn1)C(=O)N[C@@H](CC(C)C)C(=O)N[C@@H](CC(C)C)C(=O)N[C@@H](CCC(=O)O)C(=O)N[C@@H](Cc1c[nH]cn1)C(N)=O)C(N)=O,mouse erythrocytes,hemolysis,,"1 h, 37 °C",,HC10,~148 µM
CN1CCN(C(=O)N[C@@H](Cc2ccccc2)C(=O)N[C@H](/C=C/S(=O)(=O)c2ccccc2)CCc2ccccc2)CC1,"Vero E6, HeLa-ACE2, Caco-2, A549-ACE2, Calu-3",,,10 to 100 µM,,cytotoxicity,not toxic
CC[C@H](C)[C@H](NC(=O)[C@H](CCCCN)NC(=O)[C@H](C)NC(=O)[C@H](CCCNC(=N)N)NC(=O)[C@H](CCCCN)NC(=O)[C@H](CC(N)=O)NC(=O)[C@H](CCC(N)=O)NC(=O)[C@H](Cc1ccccc1)NC(=O)[C@H](Cc1c[nH]c2ccccc12)NC(=O)[C@@H](NC(=O)[C@H](CCCCN)NC(=O)[C@@H](NC(=O)[C@H](CCC(N)=O)NC(=O)[C@H](CO)NC(=O)[C@H](CC(C)C)NC(=O)[C@H](CCC(N)=O)NC(=O)[C@H](C)NC(=O)[C@H](CCCNC(=N)N)NC(=O)[C@@H](NC(=O)[C@H](Cc1ccccc1)NC(=O)[C@@H](NC(=O)[C@@H](NC(=O)[C@H](CCCNC(=N)N)NC(=O)[C@H](CCC(=O)O)NC(=O)[C@H](CCCNC(=N)N)NC(=O)[C@H](CCCNC(=N)N)NC(=O)[C@H](CCC(N)=O)NC(=O)[C@H](CCCCN)NC(=O)[C@H](CCCNC(=N)N)NC(=O)CNC(=O)CNC(=O)CNC(=O)CNC(=O)CNC(=O)CCCC[C@@H]1SC[C@@H]2NC(=O)N[C@@H]21)[C@@H](C)O)[C@@H](C)O)[C@@H](C)O)[C@@H](C)CC)[C@@H](C)CC)C(=O)N[C@@H](CCCCN)C(=O)N[C@@H](CCCCN)C(N)=O,SK-OV-3,MALDI-TOF MS,,"7 µM, 1 h, 37 °C",baseline: SK-OV-3 over CHO-K1,internalization ratio,~3 fold
CCn1c(SCc2ccc(C#N)cc2)nc2cc3ccccc3cc2c1=O,BGM,morphology and trypan blue,,72 h,,maximum non-toxic concentration,50 µg/mL
Cc1c(Br)cnc2c1NC(=O)c1cccnc1N2C1CC1,primary human hepatocytes,midazolam 1'-hydroxylation,,"25 and 100 µM, 72 h",baseline: vehicle,CYP3A4 activity,no effect
O=C(CCC(=O)OCCNC(=O)[C@H](Cc1ccccc1)NC(=O)[C@H](Cc1ccccc1)NC(=O)Cc1ccc2ccccc2c1)NCCS(=O)(=O)O,SK-OV-3,LC-MS,culture medium,"50 µM, 4 h",,concentration in medium,39 µM
Nc1cccc[n+]1Cc1cccc(C[n+]2ccccc2N)c1,3T3-L1,MTT,,concentration not given,,cytotoxicity,not toxic
CC[C@H](C)[C@H](NC(=O)[C@H](CCC(=O)O)NC(=O)CNC(=O)[C@@H](NC(=O)[C@H](CC(C)C)NC(=O)[C@H](CC(C)C)NC(=O)[C@H](CC(C)C)NC(=O)[C@H](CC(C)C)NC(=O)[C@H](CS)NC(=O)[C@H](CO)NC(=O)[C@H](Cc1ccccc1)NC(=O)CNC(=O)[C@H](CCCNC(=N)N)NC(=O)[C@@H]1CCCN1C(=O)[C@H](C)NC(=O)[C@H](CCSC)NC(=O)CNC(=O)CNC(=O)[C@H](Cc1ccccc1)NC(=O)[C@H](CCCCN)NC(=O)[C@H](Cc1c(C)cc(O)cc1C)NC(=O)[C@H](N)CCCNC(=N)N)[C@@H](C)O)C(=O)N[C@@H](CC(=O)O)C(=O)N[C@@H](CC(C)C)C(=O)N1CCC[C@H]1C(=O)N[C@H](C(=O)N[C@@H](CCCCN)C(=O)N[C@@H](CCCNC(=N)N)C(=O)N[C@@H](CCCNC(=N)N)C(=O)N[C@@H](C)C(N)=O)C(C)C,mouse erythrocytes,,,"below 1 µM, 1 h, 37 °C",,hemolysis,< 0.86%
CC1(C)CC([n+]2cc([NH-])on2)CC(C)(C)N1O,human trabecular meshwork cells,,,"24 h, serum-free",,highest non-toxic concentration,≤ 125 µM
CC1C(=NNC(=O)c2ccncc2)C(C)C(c2ccc(Cl)cc2)OC1c1ccc(Cl)cc1 (centres unmarked),human PBMC,"cytotoxicity, MTT",,,,IC50,564 µg/mL
Nc1ccc(Nc2c(NC3CCN(Cc4ccccc4)CC3)c(=O)c2=O)cc1,SH-SY5Y,MTT,,"6.25 µM, 24 h",,viability,104.1 ± 0.52%
NC(=O)c1ccc(C(=O)NOCc2ccc(Sc3cccc(Cl)c3)c(C(F)(F)F)c2)cc1,BXPC-3 cells (human),CCK-8,,100 µM,,cytotoxicity,not toxic
CC[C@H](C)[C@H](NC(=O)[C@@H](NC(=O)[C@H](CCCCN)NC(=O)[C@@H](NC(=O)[C@@H]1CCCN1[C@@H]1CN(C(=O)[C@@H](NC(=O)[C@@H](NC(=O)[C@@H](NC(=O)[C@@H](NC(=O)[C@@H](NC(=O)[C@@H](N)CCCCN)C(C)C)C(C)C)C(C)C)[C@@H](C)CC)[C@@H](C)O)CC[C@H]1NS(=O)(=O)c1ccc(C)cc1)[C@@H](C)O)C(C)C)C(=O)N[C@@H](CC(C)C)C(=O)N[C@@H](Cc1c[nH]cn1)C(N)=O,PC-12 (neuronally differentiated),LDH release,,20 h,,highest non-toxic concentration,≥ 100 µM
CSCC[C@H](NC(=O)CCCCCNC(=S)Nc1ccc2c(c1)C(=O)OC21c2ccc(O)cc2Oc2cc(O)ccc21)C(=O)N[C@@H](C)C(=O)N[C@@H](CC(N)=O)C(=O)N[C@@H](CC(C)C)C(=O)NCC(=O)N[C@@H](Cc1ccc(O)cc1)C(=O)N[C@@H](Cc1c[nH]c2ccccc12)C(=O)N[C@@H](CC(C)C)C(=O)N[C@@H](CC(C)C)C(=O)N[C@@H](C)C(=O)N[C@@H](CC(C)C)C(=O)N[C@@H](Cc1ccccc1)C(=O)N[C@H](C(=O)N[C@H](C(=O)N[C@@H](Cc1ccc(O)cc1)C(=O)N[C@@H](Cc1c[nH]c2ccccc12)C(=O)N[C@H](C(=O)N[C@@H](CC(=O)O)C(=O)N[C@@H](CC(C)C)C(=O)NCC(=O)N[C@@H](CC(C)C)C(=O)N[C@H](C(=O)N[C@@H](CCCCN)C(=O)N[C@@H](CCCCN)C(=O)N[C@@H](CCCNC(=N)N)C(=O)N1CCC[C@H]1C(=O)N[C@@H](CCCCN)C(=O)N1CCC[C@H]1C(=O)O)C(C)C)[C@@H](C)O)[C@@H](C)O)C(C)C,human PBMCs,"imaging flow cytometry, FITC-labelled",,"1 µM, 30 min",baseline: CD19+ B cells,cells with surface-bound peptide,50.3%
O=c1c(NCc2ccc(O)cc2)c(NC2CCN(Cc3ccccc3)CC2)c1=O,SH-SY5Y,MTT,,"6.25 µM, 24 h",,viability,103 ± 2.01%
CCn1c(SCc2cccc(OC)c2)nc2cc3ccccc3cc2c1=O,BGM,morphology and trypan blue,,72 h,,maximum non-toxic concentration,55 µg/mL
COc1ccc(CCNc2c(NC3CCN(Cc4ccccc4)CC3)c(=O)c2=O)cc1OC,SH-SY5Y,MTT,,"6.25 µM, 24 h",,viability,108 ± 1.38%
COc1cccc(CSc2nc3cc4ccccc4cc3c(=O)n2Cc2ccccc2)c1,BGM,morphology and trypan blue,,72 h,,maximum non-toxic concentration,65 µg/mL
O=c1c(NCc2ccccc2)c(NC2CCN(Cc3ccccc3)CC2)c1=O,SH-SY5Y,MTT,,"12.5 µM, 24 h",,viability,114 ± 1.64%
C1=[N+]2CCCC[N+]3=Cc4ccc5[n]4[Au-]23[n]2c1ccc2-c1nc2ccccc2nc1-5.F[P-](F)(F)(F)(F)F,prostate cancer cell lines,,,NCI60 panel mean,,CC50,> 100 µM

# Excerpt of the above:
SMILES,cell line,assay,test system,setting,scale,quantity,result
COc1ccc(CCNc2c(NC3CCN(Cc4ccccc4)CC3)c(=O)c2=O)cc1OC,SH-SY5Y,MTT,,"6.25 µM, 24 h",,viability,108 ± 1.38%
COc1cccc(CSc2nc3cc4ccccc4cc3c(=O)n2Cc2ccccc2)c1,BGM,morphology and trypan blue,,72 h,,maximum non-toxic concentration,65 µg/mL
